{"data": "Published values gathered from unrelated publications", "note": "Every numbered part comes from another study and shows a few of its results, in no order. Changes are numbered by the printed parent chain."}
{"data": "Sample 1", "target": "UBE2W UBC core domain (UniProt Q96B02)", "method": "yeast two-hybrid", "matrix": "yeast", "notes": "mostly zero background", "baseline": "not given", "reading": "higher = stronger interaction", "B1": "RNF149 RING domain (UniProt Q8NC42); chain EKGIDVDAENCAVCIENFKVKDIIRILPCKHIFHRICIDPWLLDHRTCPMCKLDVIKALGYW", "B2": "RNF32 RING domain (UniProt Q9H0A6); chain SLLQGDSVQPCPICKEEFELRPQVLLSCSHVFHKACLQAFEKFTNKKTCPLCRKNQYQTRVIH", "B3": "RNF4 RING domain (UniProt P78317); chain TGLRPSGTVSCPICMDGYSEIVQNGRLIVSTECGHVFCSQCLRDSLKNANTCPTCRKKINHKRYHP", "B4": "TRIM55 RING domain (UniProt Q9BYV6); chain TMDNLEKQLICPICLEMFTKPVVILPCQHNLCRKCASDIFQASNPYLPTRGGTTMASGGRFRCPSCRHEVVLDRHG", "B5": "TRIM52 RING domain (UniProt Q96A61); chain PMQTLQEEAVCAICLDYFKDPVSISCGHNFCRGCVTQLWSKEDEEDQNEEEDEWEEEEDEEAV", "B6": "RFPL2 RING domain (UniProt O75678); chain MAALFQEASSCPVCSDYLEKPMSLECGCAVCLKCINSLQKEPHGEDLLCCCSSMVSRKNKIRR", "B7": "RNF5 RING domain (UniProt Q99942); chain ERGGAGATFECNICLETAREAVVSVCGHLYCWPCLHQWLETRPERQECPVCKAGISREKVVP", "B8": "TRIM38 RING domain (UniProt O00635); chain STKKMMEEATCSICLSLMTNPVSINCGHSYCHLCITDFFKNPSQKQLRQETFCCPQCRAPFHMDSLRP", "Construct (chain)": "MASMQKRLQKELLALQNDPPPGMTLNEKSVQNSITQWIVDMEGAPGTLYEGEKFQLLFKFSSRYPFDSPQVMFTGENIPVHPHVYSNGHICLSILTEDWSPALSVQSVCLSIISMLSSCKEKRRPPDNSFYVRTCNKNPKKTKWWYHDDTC"}
{"Molecule": "B1 (RNF149 RING domain)", "lacZ reporter activity": 0}
{"Molecule": "MANWVFCNRCFQPPHRTSCFSLTNCGHVYCDACLGKGKKNECLICKAPCRTVLLSK (RNF212 RING domain (UniProt Q495C1))", "lacZ reporter activity": 0}
{"Molecule": "SYEDKSNDFVCPICFDMIEEAYMTKCGHSFCYKCIHQSLEDNNRCPKCNYVVDNIDHLY (COP1 RING domain (UniProt Q8NHY2))", "lacZ reporter activity": 0}
{"Molecule": "B2 (RNF32 RING domain)", "lacZ reporter activity": 0}
{"Molecule": "FLKKLEQSFMCVCCQELVYQPVTTECFHNVCKDCLQRSFKAQVFSCPACRHDLGQNYIMI (UHRF2 RING domain (UniProt Q96PU4))", "lacZ reporter activity": 9620}
{"Molecule": "KRQCSDVDDICSICQAEFQKPILLICQHIFCEECMTLWFNREKTCPLCRTVISDHINKW (RNFT1 RING domain (UniProt Q5M7Z0))", "lacZ reporter activity": 0}
{"Molecule": "B3 (RNF4 RING domain)", "lacZ reporter activity": 5140}
{"Molecule": "B4 (TRIM55 RING domain)", "lacZ reporter activity": 0}
{"Molecule": "B5 (TRIM52 RING domain)", "lacZ reporter activity": 0}
{"Molecule": "QLQDEEDDSLCRICMDAVIDCVLLECGHMVTCTKCGKRMSECPICRQYVVRAVHVF (RNF34 RING domain (UniProt Q969K3))", "lacZ reporter activity": 0}
{"Molecule": "B6 (RFPL2 RING domain)", "lacZ reporter activity": 0}
{"Molecule": "B7 (RNF5 RING domain)", "lacZ reporter activity": 0}
{"Molecule": "KIKDLNEHIVCCLCAGYFVDATTITECLHTFCKSCIVKYLQTSKYCPMCNIKIHETQPLL (PCGF1 RING domain (UniProt Q9BSM1))", "lacZ reporter activity": 0}
{"Molecule": "B8 (TRIM38 RING domain)", "lacZ reporter activity": 0}
{"data": "Sample 2", "target": "CCNE1, cyclin fold, Cln2 fusion (human)", "method": "yeast growth competition, sequencing", "matrix": "yeast", "notes": "strong parent motif", "baseline": "not given", "reading": "higher = stronger binding", "parent": "viral docking peptide; KGVKRKLFAEDSS"}
{"Substitution": "G2Y", "normalised enrichment score": 6.98}
{"Substitution": "D11S", "normalised enrichment score": 7.56}
{"Substitution": "G2K", "normalised enrichment score": 7.52}
{"Substitution": "L7H", "normalised enrichment score": -0.0536}
{"Substitution": "R5T", "normalised enrichment score": 0.947}
{"data": "Sample 3", "target": "TAR DNA-binding protein 43, full length, His tag (TARDBP, Homo sapiens, UniProt Q13148, residues 1-414)", "method": "RNA Bind-n-Seq", "molecule type": "RNA", "matrix": "in vitro", "concentration": "20 nM", "notes": "6-mer, flanks averaged, single round", "with": "150 mM LiCl", "baseline": "input library", "reading": "higher = stronger binding"}
{"Oligonucleotide": "CGCGCA", "6-mer enrichment (R)": 0.95}
{"Oligonucleotide": "AUCGGA", "6-mer enrichment (R)": 0.897}
{"Oligonucleotide": "CGGUUG", "6-mer enrichment (R)": 1.05}
{"Oligonucleotide": "ACGCGU", "6-mer enrichment (R)": 0.93}
{"Oligonucleotide": "UGGUAA", "6-mer enrichment (R)": 1}
{"Oligonucleotide": "UUCGUG", "6-mer enrichment (R)": 1.03}
{"Oligonucleotide": "AUAAUA", "6-mer enrichment (R)": 1.38}
{"Oligonucleotide": "AUUGAU", "6-mer enrichment (R)": 0.908}
{"data": "Sample 4", "target": "Eukaryotic initiation factor 4A-I (EIF4A1, Homo sapiens, UniProt P60842, residues 1-406, full length assumed)", "method": "RNA Bind-n-Seq", "molecule type": "RNA", "matrix": "in vitro", "concentration": "15 pmol", "notes": "4-mer, random 30-nt RNA, single round", "with": "DMSO vehicle, 2 mM AMP-PNP", "baseline": "input library", "reading": "higher = stronger binding", "chain of UniProt P60842 (whole entry, looked up)": "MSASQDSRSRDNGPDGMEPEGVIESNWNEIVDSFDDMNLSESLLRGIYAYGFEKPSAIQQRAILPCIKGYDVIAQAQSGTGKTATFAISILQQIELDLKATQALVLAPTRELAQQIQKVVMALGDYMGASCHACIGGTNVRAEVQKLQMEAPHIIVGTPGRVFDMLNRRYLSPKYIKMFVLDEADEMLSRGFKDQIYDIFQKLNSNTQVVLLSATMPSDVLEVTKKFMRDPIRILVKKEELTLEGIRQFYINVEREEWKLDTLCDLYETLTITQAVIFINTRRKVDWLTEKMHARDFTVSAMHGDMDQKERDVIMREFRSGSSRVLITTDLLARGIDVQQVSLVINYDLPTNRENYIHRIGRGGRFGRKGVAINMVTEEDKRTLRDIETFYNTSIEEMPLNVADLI"}
{"Oligonucleotide": "UAGA", "4-mer enrichment [fold]": 0.828}
{"Oligonucleotide": "CGUG", "4-mer enrichment [fold]": 1.03}
{"Oligonucleotide": "AUAC", "4-mer enrichment [fold]": 1.01}
{"Oligonucleotide": "UGCA", "4-mer enrichment [fold]": 0.852}
{"Oligonucleotide": "GAGU", "4-mer enrichment [fold]": 0.957}
{"Oligonucleotide": "AGGC", "4-mer enrichment [fold]": 1.09}
{"Oligonucleotide": "CAGA", "4-mer enrichment [fold]": 1.29}
{"Oligonucleotide": "AAAC", "4-mer enrichment [fold]": 1.81}
{"note": "A few entries again (sample 1):"}
{"Molecule": "B3 (RNF4 RING domain)", "lacZ reporter activity": 5140}
{"Molecule": "B4 (TRIM55 RING domain)", "lacZ reporter activity": 0}
{"Molecule": "B5 (TRIM52 RING domain)", "lacZ reporter activity": 0}
{"Molecule": "QLQDEEDDSLCRICMDAVIDCVLLECGHMVTCTKCGKRMSECPICRQYVVRAVHVF (RNF34 RING domain (UniProt Q969K3))", "lacZ reporter activity": 0}
{"Molecule": "B6 (RFPL2 RING domain)", "lacZ reporter activity": 0}
